Measured values collected from several papers.
Each numbered part is a random draw from the data of one study; scales do not carry over between parts. Positions count from the first letter of the parent shown.

Set 1
Target: ATF1, bZIP domain (human)
Method: DHFR protein complementation
Medium: yeast
Setting: single substitutions, most at no-binding floor
Relative to: wild-type JUN-FOS pair
Reading: higher = stronger binding
Endpoint: binding fitness
Starting sequence: JUN, bZIP domain (human); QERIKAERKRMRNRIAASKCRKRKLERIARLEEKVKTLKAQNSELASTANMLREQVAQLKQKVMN; partner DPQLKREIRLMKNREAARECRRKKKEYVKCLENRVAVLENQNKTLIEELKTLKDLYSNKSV
V56L: -1.51 natural log
Q55M: -1.5 natural log
L38H: -1.52 natural log
R53S: -1.53 natural log
E44P: -1.55 natural log
N42M: -1.47 natural log
L45V: -1.52 natural log
T48Y: -1.56 natural log
S43W: -1.52 natural log
Q41S: -1.41 natural log
E32A: -1.48 natural log
E32Y: -1.51 natural log
E44G: -1.54 natural log
K39M: -1.45 natural log
Q55G: -1.54 natural log
T48W: -1.43 natural log
S47Y: -1.42 natural log
N42Y: -1.42 natural log
A29F: -1.49 natural log
V56N: -1.49 natural log
A46L: -1.45 natural log
S43T: -1.48 natural log
A40N: -1.4 natural log
E44K: -1.49 natural log
K36P: -1.5 natural log

Set 2
Target: CCNA1, cyclin fold, Cln2 fusion (human)
Method: yeast growth competition, sequencing
Medium: yeast
Setting: weak parent motif
Relative to: not given
Reading: higher = stronger binding
Endpoint: normalised enrichment score
Starting sequence: GMNC docking peptide (human); KNAKRNLSSEFAN; partner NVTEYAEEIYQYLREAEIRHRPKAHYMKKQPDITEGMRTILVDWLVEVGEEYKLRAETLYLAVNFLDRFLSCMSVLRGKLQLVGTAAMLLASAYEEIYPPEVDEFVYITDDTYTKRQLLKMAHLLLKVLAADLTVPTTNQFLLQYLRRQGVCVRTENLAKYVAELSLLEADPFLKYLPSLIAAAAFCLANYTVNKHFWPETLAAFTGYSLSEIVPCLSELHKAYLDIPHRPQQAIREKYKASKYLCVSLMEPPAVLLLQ
A12V: 0.187
N6V: 0.301
E10W: 0.88
F11S: 0.524
N2A: 0.405
N2Q: 0.668
F11E: 0.316
S9A: 0.604
L7T: 0.558
N6R: 0.299
E10T: -0.000443
N2R: 1.21
A3H: 0.308
S8L: 0.775
A12I: 0.716
N6I: 0.12
A3T: 0.606
R5Y: 0.244
A3N: 0.0222

Set 3
Target: Hepatocyte nuclear factor 3-alpha (Foxa1, Mus musculus, UniProt P35582, residues 1-468, full length assumed)
Method: EMSA with sequencing
Form: double-stranded DNA, one strand shown
Medium: in vitro
Tested at: 10 and 20 nM
Setting: whole designed probe, mean of two concentrations, ends assumed
Relative to: negative control set to 0
Reading: higher = stronger binding
Endpoint: normalised bound fraction
All sequences stand within: GTGAGCGGTGCCCATTGATGGGGAAC … TTTCACTGGGATCGTGGGGAC
Residues (chain): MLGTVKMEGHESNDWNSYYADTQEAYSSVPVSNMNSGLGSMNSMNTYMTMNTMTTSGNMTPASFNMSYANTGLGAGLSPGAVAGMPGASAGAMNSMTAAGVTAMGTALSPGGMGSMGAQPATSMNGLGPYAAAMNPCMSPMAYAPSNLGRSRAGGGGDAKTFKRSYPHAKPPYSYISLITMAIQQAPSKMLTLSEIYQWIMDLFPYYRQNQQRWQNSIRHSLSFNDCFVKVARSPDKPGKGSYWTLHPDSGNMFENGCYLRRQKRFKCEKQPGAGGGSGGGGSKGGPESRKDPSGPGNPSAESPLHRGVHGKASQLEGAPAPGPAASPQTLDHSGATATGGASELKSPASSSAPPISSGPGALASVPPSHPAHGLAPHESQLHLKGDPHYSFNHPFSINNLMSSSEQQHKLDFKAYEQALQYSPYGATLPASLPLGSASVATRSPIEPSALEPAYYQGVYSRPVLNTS
CCCTACAATGGCTGGAATATGGAGTGAAATGCCAGGGTGGTCCCTACTAAGTGCATGGACATGGTAGGTTAACTGCTTTTTTTCTAGGAGCTGAGTAAACAGAGAGGGTCACACAGAAAAACATTTGTTTCTGTTTTGATCATGCCCTTTTAAGGTGCATGTTATACAGATCAAGATTCCAACTGCTACGAGT: 0.347 ratio
CACCGCGCTCGCACGGCTTTGTCCGTGCTACAAAGCAGCCTGTTAAACTATTGGAACTAATGCGCCGCAGCTGCGCGAGTGACTTCTGCTGCTTATGTACATAAAAAGTCCTGTAACCATCAGAGGGGGAGGGCTTGCCTGCTGCTGGGTTGTTTGGCTAGTCTTTCCATTTGCTTATTCCTGAATCCAAAGG: 0.33 ratio
ATCTTCCCCCTCTTCCTTGCCCCACCAGCTCACCTTCCCGGGTTATTTGCAGATAGGAAAATAAATAAAGCCGGCATTCGTTAACCCTCTTCACGCGCATACTGCTGTTTGCTCTGCATGAATCATGGTCCTTACGCGACGCCAGGCTCCGGGAGAGCAAAGCACCGTGTCAGGCGCATGATCCGGGCTCGCC: 0.347 ratio
CTCCAGGGTAGTTGTCCTTCCTGTGGCTGCTCACTGATCCAGGCTACTTTGATCTTGTGACTCAAAGTTCAACAAAATGTGGATGCGTCATTTTATTTACACTTCAATGGCCCTTACGAAATAGAAGGCCTCATCCAGTTGCAAGAAGTTTGGGAAATGTAGCCTTCCATATTTACAGGAATAAATGAAAAAC: 0.285 ratio
TGATATCAGGTTAAAAGAAACATTTCCTGGCAGATGCACAGCTCTGGAAAATTTTGTTTTCCAAACGTCTGGAAAACAAAAGGAAAGCTTCCTTTGTTTACATAGCCAAGAAGGTTGAGTGATGAGAATCAGAAAAGATTTTGAAGCAATACAAGATCTTCTCCTAGGGCCATTAGAGATCAGCTAATCTGTT: 0.49 ratio

Set 4
Target: Histone acetyltransferase KAT6A, both winged helices, GST fusion (KAT6A, Homo sapiens, UniProt Q92794, residues 1-181)
Method: protein binding microarray
Form: double-stranded DNA, one strand shown
Medium: in vitro
Tested at: not given
Setting: 8-mer, flanks averaged, mean of 2 arrays, mostly near background
Relative to: not given
Reading: higher = stronger binding
Endpoint: E-score
Construct (chain): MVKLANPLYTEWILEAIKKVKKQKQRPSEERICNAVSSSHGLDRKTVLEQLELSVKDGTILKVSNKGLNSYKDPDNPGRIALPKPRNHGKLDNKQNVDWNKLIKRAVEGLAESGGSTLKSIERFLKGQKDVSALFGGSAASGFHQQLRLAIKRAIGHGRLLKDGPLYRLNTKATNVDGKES
CTCAGCGA: 0.00565
TATTCCCA: -0.102
ACTCATAT: -0.00371
GCCACATA: -0.0432
TGCGCGAA: 0.28
CTATCGCA: 0.00067
ATCGAGAA: -0.098
CAAATGGA: -0.163
ACTAGCAC: -0.0198
GATACCAA: 0.049
ACAGCACC: 0.01
GCACAGGA: 0.0457
CCCCCCCA: -0.227
ACTTCCGC: 0.21
GGTGCGTA: 0.0919
ACATCACA: -0.145
ACTGACAC: -0.0768
AGGCGTAA: -0.0529
ACGGGGCC: 0.0712
CCCAAGGA: 0.016
GCTTTCCC: 0.105
GTGGAAAC: -0.124
AGCGCGGC: 0.381
AACTAATA: -0.0111
AACCGCTG: 0.0569

Set 5
Target: ABI1, truncated, D143A, DHFR fusion (Arabidopsis thaliana, UniProt P49597)
Method: DHFR PCA, dose-response
Medium: yeast
Setting: Hill fit, mean, not affinity
Added: (+)-ABA, dose series
Reading: lower = more sensitive
Endpoint: ABA EC50
Starting sequence: PYL1, truncated, DHFR fusion (Arabidopsis thaliana, UniProt Q8VZS8); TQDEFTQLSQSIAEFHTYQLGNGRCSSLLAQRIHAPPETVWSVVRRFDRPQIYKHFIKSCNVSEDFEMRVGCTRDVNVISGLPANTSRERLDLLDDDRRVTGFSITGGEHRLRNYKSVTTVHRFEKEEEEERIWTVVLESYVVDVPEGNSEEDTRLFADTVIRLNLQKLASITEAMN
E67M: 4.2 µM
K126F: 2.04 µM
D144A: 48.2 µM
R24I: 6.05 µM
G81D: 160 µM
R46V: 53.4 µM
S27K: 84.2 µM
L166C: 438 µM
T160A: 30.6 µM
R132I: 2.81 µM
G21M: 2.66 µM
S59V: 20.8 µM
T39Y: 5.44 µM
T6G: 1.71 µM
R49H: 4.12 µM
V62S: 65.9 µM
T119A: 204 µM
N61A: 1.93 µM
E152S: 2.85 µM
E67G: 6.37 µM
